# Experimental data of several laboratories.
# Protocols differ between the studies behind these lines.
Structure (SMILES),organism,assay,test system,setting,how to read,quantity,result
[Ag+].[S-]c1ccccn1.c1ccc(P(c2ccccc2)c2ccccc2)cc1.c1ccc(P(c2ccccc2)c2ccccc2)cc1,Enterococcus faecalis,,"MTCC 439, DMSO","0.1 mL of 50 mg/mL in 8 mm well, 18 to 24 h",,inhibition zone diameter,13 mm
CNC(=O)CNc1cnc2ccc(-c3ccc(OC)c(OC)c3)cc2n1,Cryptosporidium hominis,cytopathic effect,HCT-8,concentration not given,,antiparasitic activity,inactive
CC(=O)[O-].CN1CCN2CCN(CC1)CCN(Cc1ccccc1)CC2.F[P-](F)(F)(F)(F)F.[Cu+2],Leishmania donovani,,"THP-1-derived macrophages, intracellular amastigotes",,,IC50,> 20 µM
C=CC1CN(C(=O)NCC=CCSSSCC=CCNC(=O)N2CC(C=C)OC2=S)C(=S)O1 (stereo not shown),human alphaherpesvirus 1,,,,relative to: CC50 over EC50,selectivity index,2.68
CC(=O)[O-].F[P-](F)(F)(F)(F)F.[Cu+2].c1ccc(CN2CCN3CCN(CC2)CCN(Cc2ccccc2)CC3)cc1,Leishmania donovani,"parasite growth, resazurin",,"72 h, promastigote",,IC90,> 20 µM
COc1cc(-c2ccc3oc(-c4ccsc4)c(C#CC4(O)CCCCC4)c3c2)cc(OC)c1OC,hepatitis C virus,HCV replicon replication,"Huh-7.5.1, genotype 1a transient replicon",10 µM,relative to: DMSO,remaining activity,76.6%
[Cl-].[Cl-].[Mn+2].c1ccc(CN2CCCNCCN(Cc3ccccc3)CCCNCC2)cc1,Leishmania donovani,"parasite growth, resazurin",,"72 h, amastigote",,IC90,> 19 µM
COc1ccc(S(=O)(=O)NCc2c[nH]nc2-c2cccs2)cc1,Plasmodium falciparum,single-step resistance selection,Dd2-B2,,,days to recrudescence,40 days
CN1CC(=O)N=C1N.C[C@H](CCC(=O)O)[C@H]1CC[C@H]2[C@@H]3[C@H](O)C[C@@H]4C[C@H](O)CC[C@]4(C)[C@H]3CC[C@]12C,Shigella flexneri,,ATCC 9199,"1 mg per disc, 18 to 24 h, 37 °C",,antibacterial activity,inactive
C[C@@H](O)[C@H](NC(=O)[C@H](CCC(=O)O)NC(=O)[C@H](Cc1ccccc1)NC(=O)[C@H](Cc1c[nH]c2ccccc12)NC(=O)[C@H](CCCCN)NC(=O)[C@H](CCCCN)NC(=O)[C@H](CCCCN)NC(=S)Nc1ccc2c(c1)C(=O)OC21c2ccc(O)cc2Oc2cc(O)ccc21)C(=O)N[C@@H](Cc1c[nH]c2ccccc12)C(=O)N[C@@H](Cc1ccccc1)C(=O)N[C@H](C(=O)N[C@@H](CCC(=O)O)C(=O)N[C@@H](Cc1c[nH]c2ccccc12)C(=O)N1CCC[C@H]1C(=O)N[C@@H](CCCCN)C(=O)N[C@@H](CCCCN)C(=O)N[C@@H](CCCCN)C(=O)N[C@@H](CCCCN)C(=O)O)[C@@H](C)O,Fusarium solani,,,"10-fold MIC, 25 °C",,duration of growth inhibition,4 h
[Cl-].[Cl-].[Mn+2].c1ccc(CN2CCNCCN(Cc3ccccc3)CCNCC2)cc1,Leishmania donovani,"parasite growth, resazurin",,"72 h, promastigote",,IC50,2.82 µM
COc1ccc(-c2oc3ccc(-c4cc(OC)c(OC)c(OC)c4)cc3c2C#CC(C)(C)O)cc1,hepatitis C virus,HCV replicon replication,"Huh-7.5.1, genotype 1a transient replicon",10 µM,relative to: DMSO,remaining activity,106%
CCCCc1ccc(-c2nc(C)c(C(C)=NNC(=N)N)s2)cc1,Staphylococcus aureus,,NRS19 VISA,,,MBC,2.6 µg/mL

# Some of these lines once more:
Structure (SMILES),organism,assay,test system,setting,how to read,quantity,result
COc1ccc(-c2oc3ccc(-c4cc(OC)c(OC)c(OC)c4)cc3c2C#CC(C)(C)O)cc1,hepatitis C virus,HCV replicon replication,"Huh-7.5.1, genotype 1a transient replicon",10 µM,relative to: DMSO,remaining activity,106%
